Experimental data of several laboratories.
Every numbered part comes from another study and shows a few of its results, in no order. Positions count from the first letter of the parent shown.

Sample 1
Target: Interferon regulatory factor 5, full length, phosphomimetic (IRF5, Homo sapiens, UniProt Q13568-2, residues 1-514, S451D/S453D/S456D/S462D)
Technique: protein-binding microarray
Form: double-stranded DNA, one strand shown
Medium: in vitro
Concentration: 940 nM top
Notes: 60-bp whole probe
Together with: salmon DNA 0.4 mg/ml
Reference: random background probes
Direction: higher = stronger binding
Constant ends, left off below: GCCTAGCAC … GTCTTGATTCGCTTGACGCTGCTG
Strand | fitted relative affinity [z-score]
GACGTTCTCCTTATCCTGACGTGCTAG | 1.22
AGAGCAGACCCAGAGTGGCAGTGCTAG | -0.205
GACGATCTCATTATCGAGACGTGCTAG | 0.557
TCAAGTTTCTCCTTTCGACTGTGCTAG | 3.67
GACGATCTCGGGTATCGAGACGTGCTA | 1.35
GAATTTCCCACTTTCAGTTCGTGCTAG | 2.84
TTAGATCTCAGTAGCGATTAGTGCTAG | 0.323
GACGGTATCGACTAACGGGACGTGCTA | 5.07
GACGGTTTGGGGTTTCGGGACGTGCTA | 2.39
CGCTTTTTTTTTTTTTTTTTGTGCTAG | 0.865
CTAATATTGAGACTCATGGGGTGCTAG | 0.0989
ATGCTTCTGGTCTTCTGGGCGTGCTAG | 0.289
CACGAACTGGGGTTTCGAGACGTGCTA | 1.77
TCAAAATTAGTGTTTGCCACTGTGCTA | -0.322
TTAGGTATCCTTATACTTTAGTGCTAG | 0.472
ATAGGTTTCGACTATCGGTTAGTGCTA | 8.7
TTAGATATCGGGACTGTATTAGTGCTA | 0.196
TCAAGTTTTTATTTTCTACTGTGCTAG | 1.32
TTAGGACTGGGTCTCGTTTAGTGCTAG | 0.42

Sample 2
Target: Histone acetyltransferase KAT6A, winged helix 1, GST fusion (KAT6A, Homo sapiens, UniProt Q92794, residues 1-85)
Technique: protein binding microarray
Form: double-stranded DNA, one strand shown
Medium: in vitro
Concentration: not given
Notes: 8-mer, flanks averaged, mean of 2 arrays, mostly near background
Reference: not given
Direction: higher = stronger binding
Construct (chain): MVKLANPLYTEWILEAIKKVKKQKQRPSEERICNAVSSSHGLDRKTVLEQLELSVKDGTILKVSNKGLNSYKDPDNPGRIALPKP
Strand | E-score
ATCGCCTG | -0.0628
CTTCCGCA | 0.101
AACCTACA | -0.138
ATTGAGCA | -0.237
AGAGAAAT | -0.00451
AAAGGCTA | -0.128
CACCAGAG | -0.202
AACATCGA | -0.113
AGGCACCT | -0.0635
ACCCCCCT | -0.189
GTCTCCCA | -0.157
GGACTAAC | -0.105
AATATTCA | -0.0339
CTGTTTTC | -0.0526
ACTCTGAG | -0.18
CACTTACC | 0.0631
CGAGCAGA | -0.0858
AGGTAAGA | -0.139
ACTTCATA | -0.0302
TGCCCCAA | -0.182
AGGGAACA | -0.188
AACCTATT | -0.0379
ATACCGGC | 0.343
GACCTCCC | 0.0666

Sample 3
Target: CCNB1, cyclin fold, Cln2 fusion (human)
Technique: yeast growth competition, sequencing
Medium: yeast
Notes: strong parent motif
Reference: not given
Direction: higher = stronger binding
Starting sequence: MASTL docking peptide (human); PMIAKNLMCELDE
Substitution | normalised enrichment score
A4T | 1.06
L11N | -0.0994
E10W | 0.785
A4N | 1.65
L7I | 0.642
M2N | 2.53
I3Y | 0.501
K5D | -0.0993
D12H | 0.774
A4H | 0.841
M2R | 2.67
A4Y | 1.37
A4E | 1.53
A4K | 1.63
N6T | 0.413
E10S | 0.414
C9W | 2.39
L11Q | 0.207
A4L | 0.204
L11E | 0.387
N6E | -0.0342
C9Y | 2.28
K5P | -0.214
N6H | 0.267
L7V | -0.286

Sample 4
Target: ABI1, truncated, D143A, DHFR fusion (Arabidopsis thaliana)
Technique: DHFR PCA, deep sequencing
Medium: yeast
Notes: methotrexate growth selection, single substitutions
Together with: (+)-ABA 17 µM
Reference: wild-type fitted maximum
Direction: higher = stronger binding
Starting sequence: PYL1, truncated, DHFR fusion (Arabidopsis thaliana); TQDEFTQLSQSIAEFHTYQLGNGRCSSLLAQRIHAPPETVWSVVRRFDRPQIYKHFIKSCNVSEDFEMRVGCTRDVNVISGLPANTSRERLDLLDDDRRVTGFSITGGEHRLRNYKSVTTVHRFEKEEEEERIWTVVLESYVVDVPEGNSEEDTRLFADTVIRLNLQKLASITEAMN
Substitution | relative binding score
S63Q | 89.1%
D95L | 41.3%
E129Y | 78.4%
I52V | 93%
H16S | 9.46%
Y115H | 21.3%
K54N | -8.02%
L8W | 69.2%
S63L | 67.5%
Q7W | 85%
V100H | 5.57%
N149W | -1.7%
D92R | 5.21%
Q19S | 84.3%

Sample 5
Target: RNA binding protein fox-1 homolog 2, RRM domain, GST-SBP tag (RBFOX2, Homo sapiens, UniProt O43251-10, residues 100-194)
Technique: RNA Bind-n-Seq
Form: RNA
Medium: in vitro
Concentration: 365 nM
Notes: natural RNA segment, single round, ends assumed
Reference: no-protein control
Direction: higher = stronger binding
Constant ends, left off below: GGGAGUUCUACAGUCCGACGAUC … UGGAAUUCUCGGGUGCCAA
Residues (chain): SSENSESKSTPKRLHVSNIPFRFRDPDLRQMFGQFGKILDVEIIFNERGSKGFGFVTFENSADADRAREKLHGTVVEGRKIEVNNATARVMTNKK
Strand | RBNS enrichment (R)
CAUGCCCACCUGUAUUCCCUGUCCCCUUCCUUCAUGAAGGCAUCUCCAGGCAAGGAAAACUGAAGUCAUUGGCCCGAUACAAAACAUUUCCUGCAACGAAGGAGGUGGUG | 0.392
AAAAAAUCCUCUAUUGUAUAUUUAUUCAACAACUGUUUAUGUUUCCAGGACAACUGCAAAGAAAACAAGCUGAGGUGGUUAUACUGUUGCUGUUAAAAGUUGGUAUCAGU | 0.338
UCUUUCAAUGCCUAAGUGUCUUCUUCUAUCACUCCACACCCACAGUUGCCACUUGGGGUGCACAGAUAAGGGUAGGUCACCAACUGAUUAUGCCUGUCUCUGAGCCAUGC | 0.764
UGAAAAAAACCCUUUUUACUUCAAAAAAAUUGUAAGCCACAUUGUUAAUAAAGUAAAAAUAAAUUCUUGGUGGUGUUUGGGUCUUUGUGUUGAAGGUCAUUCAAUAUUAU | 0.55
AAAAAUACUGUGGACACUUAAAUAAUGGGCUAGUUUCUUACAAUGAAAUGUUCUCUAGGAUUCUAAAAUAGGCAGGUACUUUACUAUGUUACUGUACCCUGCAGUGUUGA | 0.381
GACCAUGUGCCCAGGGACUGCAGCCAGGUUCACUCUGCUGGGAGAGCUGGCUGGGGGGAAGGGCUUGUUCCCUACAGUGUCUGUUCUGUGAAGUUUGUUACGUGUAAGGG | 0.586
GGUACUUAUAUAAAAUCUAGUCCAGUUCUCUCAUUUAAAAAAAUGAAGACACUGAAAUACAGACUUAAAUAGCUCAGAUAGCUAAUUAGGAAAUUUCAAGUUGGCCAAUA | 0.367
UGGGCCUGGCCUAGCUCCUCCGCCCUGGCCUAGCCCAGCAAACCCUGGGCGAGUCACAGAGUUUGCUCUUAAGUAGCAAGAGACCAAACUCACCUUGGGUGUAGGGGUCA | 0.257

A few entries again (sample 3):
Substitution | normalised enrichment score
L11Q | 0.207
A4L | 0.204
L11E | 0.387
N6E | -0.0342
C9Y | 2.28
